Published values gathered from unrelated publications.
Lines come from different studies, so protocols differ. Values joined by “and” are separate records of one study, mostly repeats; a detail may differ.

Under “log2 fold change”, `Cn1cc(-c2ccc(-c3cncc(Cl)c3N3CCC4(CCNC4=O)CC3)cc2)cn1` is recorded as 1.52 (COLO 205; gene expression, microarray, refers to: IFIT3 mRNA; concentration not given, 2 h; reference: untreated cells).
For `C=C1C(=O)O[C@H]2[C@H]1CC/C(C)=C/CC[C@@]1(C)O[C@@H]21`, the MyBP-C level was 1.7% (MYBPC3 iPSC cardiomyocytes; plate-normalised; concentration not given, 24 h, hit retest).
For `CC(Nc1nc(N2CCCC2)nc2ccccc12)c1ccccc1` (centres unmarked), “cells with nuclear SREBP1” read 75.2% and 92% and 79% (importin beta-1; SREBP1 nuclear import, high content imaging; HeLa Kyoto; 50 µM, 3 h, added: glucose and MG132).
With `CC(N/C(=N\C#N)Nc1ccncc1)C(C)(C)C` (centres unmarked) the activity score was 3.3 (human iPSC-derived cardiomyocytes; MyBP-C/MYH ratio, plate-normalised SD score; concentration not given, primary screen; direction not given).
`COc1nc(N)ncc1-c1cn([C@@H]2O[C@](F)(COC(=O)C(C)C)[C@@H](OC(=O)C(C)C)[C@H]2OC(=O)C(C)C)cn1` has an EC50 of 2.3 µM (Dengue virus; viral replication; Huh-7, DENV-2; 48 h).
`[Cl-].[Cl-].[Pt+2].[Ru+2].c1ccc(-c2nc3cc4ccccc4cc3nc2-c2ccccn2)nc1.c1cnc2c(c1)ccc1cccnc12.c1cnc2c(c1)ccc1cccnc12` — result for “nicked circular DNA”: 8.5% (pcDNA supercoiled plasmid; agarose gel electrophoresis; 10 µM, photoinduced cleavage, added: 0.1 µM pcDNA).
For `N#Cc1ccc2c(c1)[C@H]1CCCN(C(=O)c3ccc4[nH]cnc4c3)[C@H]1C2`, “change from baseline” read 20.1 pmol/L (refers to: fasting plasma insulin; human, Phase II trial; oral, 20 mg once daily, day 28, adjusted mean, SE).
For `O=C(O)CNC(=O)Cc1ccccc1`, the sarcomere length was 1.69 µm (ventricular cardiomyocytes, C57BL/6 mouse; dose not given, 0.132 s).
The MyBP-C level of `CCNC(=O)c1noc(-c2cc(C(C)C)c(O)cc2O)c1-c1ccc(CN2CCOCC2)cc1` is reported as 17% (MYBPC3 iPSC cardiomyocytes; plate-normalised; concentration not given, 24 h, hit retest).
`COc1ncc(-c2cn([C@@H]3O[C@](F)(COC(=O)C(C)C)[C@@H](OC(=O)C(C)C)[C@H]3OC(=O)C(C)C)cn2)c(OC)n1` has an EC50 of 23 µM (Dengue virus; viral replication; Huh-7, DENV-4; 48 h).
`Oc1ccccc1-c1n[nH]cc1-c1ccnc2ccccc12` — result for “log2 fold change”: 0.09 (TPK1 (Candida albicans); kinase binding, MIB/MS competition; Candida albicans lysate; 1 µM; reference: DMSO).
For `C[C@H]1C[C@H]2CSC(N)=N[C@@]2(c2nc(NC(=O)c3ccc(OC(F)F)cn3)cs2)CO1`, “percent change from baseline” read -82.4% (refers to: Aβ1-40; healthy adults, plasma; 400 mg single dose, 8 h post-dose; reference: placebo).
`COc1ncc(-c2cn([C@@H]3O[C@](F)(COC(=O)C(C)C)[C@@H](OC(=O)C(C)C)[C@H]3OC(=O)C(C)C)cn2)c(N)n1` has an EC50 of > 100 µM (Dengue virus; viral replication; Huh-7, DENV-4; 48 h).
`c1coc(-c2n[nH]cc2-c2ccnc3ccccc23)c1`: “log2 fold change” -0.2 (MPS1 (Candida albicans); kinase binding, MIB/MS competition; Candida albicans lysate; 10 µM; reference: DMSO).
`O=C(O)CCNC(=O)c1ccccc1` has an activity score of 3.2 (human iPSC-derived cardiomyocytes; MyBP-C/MYH ratio, plate-normalised SD score; concentration not given, primary screen; direction not given).
`Cn1cc(Nc2nccc(-c3ccc4c(c3)CN(C3COC3)CC[C@H]4NC(=O)c3cn(C(C)(C)C)nn3)n2)cn1`: “pathway activation z-score” 0.87 (mouse splenic B cells; refers to: Sirtuin signalling pathway; 30 mg/kg, IgD-activated in vivo; reference: vehicle, direction not given).
Under “change, theta power, EEG O1-Pz”, `OC(CCN1CCCCC1)(c1ccccc1)C1CC2C=CC1C2` (centres unmarked) is recorded as -37.7% (resting-state EEG; healthy elderly humans; oral, 4 mg, eyes closed, LS mean; reference: baseline).
`COC(=O)[C@H](Cc1c[nH]c2ccccc12)NCc1cc2ccccc2nc1OC` has a growth of 99.3% (Pseudomonas aeruginosa; 4 µg/mL, added: pentamidine 50 µM; reference: control).
The activity score of `COC1=C2C[C@@H](C)C[C@H](OC)[C@H](O)[C@@H](C)/C=C(\C)[C@H](OC(N)=O)[C@@H](OC)/C=C\C=C(/C)C(=O)NC(=CC1=O)C2=O` is reported as 5 (human iPSC-derived cardiomyocytes; MyBP-C/MYH ratio, plate-normalised SD score; concentration not given, primary screen; direction not given).
For `CCS(=O)(=O)c1nc(C2CC2)cc(C(F)(F)F)n1`, “cells with nuclear SREBP1” read 81.9% and 89.2% and 84.1% and 88.2% (importin beta-1; SREBP1 nuclear import, high content imaging; HeLa Kyoto; 0.05 µM, 3 h, added: glucose and MG132).
`CC(C)COCC(CN(Cc1ccccc1)c1ccccc1)N1CCCC1` (centres unmarked) has an activity score of 4.8 (human iPSC-derived cardiomyocytes; MyBP-C/MYH ratio, plate-normalised SD score; concentration not given, primary screen; direction not given).
With `CCn1cc(-c2cc(Cn3ccnc3)cc3c2CCN([C@H](c2cc(OC)ccn2)C2CC2)C3=O)c(C(F)(F)F)n1` the EC50 was > 30 µM (SNU1076; cell growth; 120 h).
`O=C(/C=C/C=C/C=C/C1CCCCC1)NC1=C[C@@](O)(/C=C/C=C/C=C/C(=O)NC2=C(O)CCC2=O)[C@@H]2O[C@@H]2C1=O` has a GI50 of 11.2 µM (MDA-MB-436; cell growth, CellTiter-Glo; 78 h).
`[Cl-].[Cl-].[Pt+2].[Ru+2].c1ccc(-c2nccnc2-c2ccccn2)nc1.c1cnc2c(c1)ccc1cccnc12.c1cnc2c(c1)ccc1cccnc12` gave a supercoiled DNA of 81.7% (pcDNA supercoiled plasmid; agarose gel electrophoresis; 10 µM, photoinduced cleavage, added: 0.1 µM pcDNA).
The activity score of `CCOC(=O)C1=C(COCCN)NC(C)=C(C(=O)OC)C1c1ccccc1Cl` (centres unmarked) is reported as 3.8 (human iPSC-derived cardiomyocytes; MyBP-C/MYH ratio, plate-normalised SD score; concentration not given, primary screen; direction not given).
The EC50 of `CCn1cc(-c2cc(Cn3ccoc3=N)cc3c2CCN([C@@H](C)c2cc(OC)ccn2)C3=O)c(C(F)(F)F)n1` is reported as 0.126 µM (NCI-H838; cell growth, inhibitor; 120 h).
`CC(C)C(=O)Nc1ncncc1-c1cn([C@@H]2O[C@](F)(COC(=O)C(C)C)[C@@H](OC(=O)C(C)C)[C@H]2OC(=O)C(C)C)cn1` has an EC50 of 49 µM (Dengue virus; viral replication; Huh-7, DENV-4; 48 h).
`O=c1cc[nH]c(=O)[nH]1` gave an activity score of 5.5 (human iPSC-derived cardiomyocytes; MyBP-C/MYH ratio, plate-normalised SD score; concentration not given, primary screen; direction not given).
With `CN(C(=O)n1cnc(-c2ccc[n+]([O-])c2)c1)C1CCCCC1` the AUC(0-tau) was 261 ng·h/mL (refers to: OEA; human, plasma; 10 mg once daily, day 10).
For `CC[S+]([O-])c1nc(-c2ccccc2)cc(C(F)(F)F)n1` (centres unmarked), “cells with nuclear SREBP1” read 49.2% and 41.5% and 44.8% and 33.7% (importin beta-1; SREBP1 nuclear import, high content imaging; HeLa Kyoto; 50 µM, 3 h, added: glucose and MG132).
With `[Cl-].[Cl-].[Pt+2].[Ru+2].c1ccc(-c2nc3ccccc3nc2-c2ccccn2)nc1.c1cnc2c(c1)ccc1cccnc12.c1cnc2c(c1)ccc1cccnc12` the supercoiled DNA was 84.5% (pcDNA supercoiled plasmid; agarose gel electrophoresis; 50 µM, photoinduced cleavage, added: 0.1 µM pcDNA).
The EC50 of `COc1cnc2cccc(N3CCc4c(cc(Cn5ccnc5C)cc4-c4cn(C)nc4C(F)(F)F)C3=O)c2c1` is reported as 2.61 µM (PECAPJ15; cell growth; 120 h).

For quick reference, copied from above:
`CC(C)COCC(CN(Cc1ccccc1)c1ccccc1)N1CCCC1` (centres unmarked) has an activity score of 4.8 (human iPSC-derived cardiomyocytes; MyBP-C/MYH ratio, plate-normalised SD score; concentration not given, primary screen; direction not given).
`COC(=O)[C@H](Cc1c[nH]c2ccccc12)NCc1cc2ccccc2nc1OC` has a growth of 99.3% (Pseudomonas aeruginosa; 4 µg/mL, added: pentamidine 50 µM; reference: control).
`[Cl-].[Cl-].[Pt+2].[Ru+2].c1ccc(-c2nccnc2-c2ccccn2)nc1.c1cnc2c(c1)ccc1cccnc12.c1cnc2c(c1)ccc1cccnc12` gave a supercoiled DNA of 81.7% (pcDNA supercoiled plasmid; agarose gel electrophoresis; 10 µM, photoinduced cleavage, added: 0.1 µM pcDNA).
